Published values of several laboratories.
Parts stem from different laboratories: compare values within a part only. Substitutions count along the parent as printed.

Block 1
Target: CCNA2, cyclin fold, Cln2 fusion (human)
Method: yeast growth competition, sequencing
Medium: yeast
Setting: strong parent motif
Baseline: not given
Reading: higher = stronger binding
Starting sequence: BRCA2 docking peptide (human); PSIKRNLLNEFDR; partner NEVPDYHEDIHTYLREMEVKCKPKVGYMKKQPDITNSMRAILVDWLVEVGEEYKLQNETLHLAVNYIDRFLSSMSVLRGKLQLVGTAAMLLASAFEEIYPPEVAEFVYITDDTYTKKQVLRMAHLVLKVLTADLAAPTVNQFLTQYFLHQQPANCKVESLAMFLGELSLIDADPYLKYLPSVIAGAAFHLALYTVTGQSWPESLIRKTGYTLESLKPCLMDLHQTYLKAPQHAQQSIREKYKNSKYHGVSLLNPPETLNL
Variant | normalised enrichment score
PSIKRNLLSEFDR [N9S] | 5.37
QSIKRNLLNEFDR [P1Q] | 5.78
PSIKRNLANEFDR [L8A] | 4.2
PTIKRNLLNEFDR [S2T] | 5.24
PSIQRNLLNEFDR [K4Q] | 2.9
PSIKRNLLMEFDR [N9M] | 5.79
PSIKRQLLNEFDR [N6Q] | 2.48
WSIKRNLLNEFDR [P1W] | 6.06
PSIKRNSLNEFDR [L7S] | -0.00603
PSIKRNLLDEFDR [N9D] | 4.97
PSIKRNLLNEKDR [F11K] | 0.0575
PSIMRNLLNEFDR [K4M] | 2.31
PSIKRNLLNEEDR [F11E] | 0.143
ISIKRNLLNEFDR [P1I] | 4.88
PSIKRNWLNEFDR [L7W] | 0.84
PRIKRNLLNEFDR [S2R] | 5.22
PLIKRNLLNEFDR [S2L] | 5.83

Block 2
Target: RNA binding protein fox-1 homolog 2, RRM domain, GST-SBP tag (RBFOX2, Homo sapiens, UniProt O43251-10, residues 100-194)
Method: RNA Bind-n-Seq
Molecule type: RNA
Medium: in vitro
Tested at: 365 nM
Setting: natural RNA segment, single round, ends assumed
Baseline: no-protein control
Reading: higher = stronger binding
All sequences stand within: GGGAGUUCUACAGUCCGACGAUC … UGGAAUUCUCGGGUGCCAA
Target sequence (chain): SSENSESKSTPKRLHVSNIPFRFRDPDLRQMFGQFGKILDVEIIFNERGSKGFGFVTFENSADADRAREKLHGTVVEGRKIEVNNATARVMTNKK
Sequence | RBNS enrichment (R)
UUUGCAGUGGGGCUAGGACAGUUGAUUCAACAAAGUAUUUUUUUCUUUUUUCUCAGUCCUAAUUUGAACAGGUCAAAGAUGUGUUCAGGCAUUCCAGGUAACAGGUGUGU | 0.368
CCCCAACUCUGCCCUUCUCCCAUCCAAGAGAAACCAGCAAAAUGAUAAAGAAGCUAACCUGCCAUAGUCAGACUUCAGACUUUCAAGAUUAUUCUAAAUCACCAGAAAAU | 0.344
CCACUACACUUCAGACCAAUGGGACAGUCAUAGAUGGUGUGACAGUGUUUAAACGCAACAAAAGGCUACAUUUCCAUGGGGCCAGCACUGUCAUGAGCCUCACUAAGCUA | 0.499
UCUGAGGAAGGCCGUAAAAUGGGGACAGGAGGAUUCAGCUCAGGAGUAAGGGAAGAGGUCCUCUGGCCCCCUGAAGAUGAGAAUCACCCCUCUCAGUGCACCUGGGGAUC | 0.334
UGUCUGAAGUGCCUUGGGGGCACCCUCAUUUUGUUUCCAUUCCAACAACGAGAACAGAGAUGUUCUGGCAUCAUUUACGUAGUUUACGCUACCAAUCUGAAUUCGAGGCC | 0.27
CAUUUGGUCUUAACACUAUGGGCUUUGUUUGCUCUGUGCUGCUGUGCCACUGCUGUUGUCUGCUCAUUGUCCUGCCUGUUGCUCAUUAUAGCCCCUGUCCUUCAUGUGUC | 0.395
UCGGCUUCUGGAGUGAAACAGCAAACCCCAAAUCUUCAAAGUUGGAAGGAACUUUAAAAAUCAUCCGGUCCAAUCUCUUUCCUCUUUCUGCCACCUCCCAAGGCAGAAAU | 0.411
GGCUCUGAGGGCGCUCCCUCCUCUCAGCCGGGCAGCCUGGCCUCUCCUGCCCAGACCUGCGGUCCCAGCAUCCCCCAGAGCCAGGGAACAGGCCCAGCGGGAGGGGGUUU | 0.343

Block 3
Target: Histone acetyltransferase KAT6A, both winged helices, GST fusion (KAT6A, Homo sapiens, UniProt Q92794, residues 1-181)
Method: protein binding microarray
Molecule type: double-stranded DNA, one strand shown
Medium: in vitro
Tested at: not given
Setting: 8-mer, flanks averaged, mean of 2 arrays, mostly near background
Baseline: not given
Reading: higher = stronger binding
Residues (chain): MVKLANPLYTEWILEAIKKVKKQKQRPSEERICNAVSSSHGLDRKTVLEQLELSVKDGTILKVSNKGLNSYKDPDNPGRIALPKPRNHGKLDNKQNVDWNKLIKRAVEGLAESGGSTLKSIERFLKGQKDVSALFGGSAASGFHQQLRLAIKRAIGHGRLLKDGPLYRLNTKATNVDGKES
Sequence | E-score
GATAAATC | 0.0233
CCACTAGC | -0.0782
AGGTCGTA | -0.00886
GTGAATCA | -0.0198
ACAGCGCA | 0.203
CGAACTTA | -0.000305
CCATAACA | -0.0383
CGACCAAG | -0.0199
CTTCCCGA | 0.152
CGGAAGGA | 0.183
GACGTGAC | 0.00844
ACACTAAT | -0.0363
TGGAAAAA | 0.0423
AGGTCTGA | 0.0162
GCTCTGAC | -0.0103
ACAGCTCG | -0.0385
GGACTGAA | -0.119

Block 4
Target: RING finger protein unkempt homolog, zinc fingers 1-6, SBP tag (UNK, Homo sapiens, UniProt Q9C0B0, residues 30-357)
Chain of UniProt Q9C0B0 (30-357, looked up): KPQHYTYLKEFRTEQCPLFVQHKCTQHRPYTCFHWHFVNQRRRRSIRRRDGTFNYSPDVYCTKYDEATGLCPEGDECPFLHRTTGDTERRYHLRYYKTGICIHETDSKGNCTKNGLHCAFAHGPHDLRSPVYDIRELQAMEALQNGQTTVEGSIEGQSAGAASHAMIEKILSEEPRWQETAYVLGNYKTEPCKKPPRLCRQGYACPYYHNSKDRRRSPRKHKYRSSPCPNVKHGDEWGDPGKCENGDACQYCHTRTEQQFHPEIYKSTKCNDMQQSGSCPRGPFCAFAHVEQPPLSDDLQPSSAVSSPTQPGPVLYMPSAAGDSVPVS
Method: RNA Bind-n-Seq
Molecule type: RNA
Medium: in vitro
Tested at: 100 nM
Setting: RNA with constant flanks, vertebrate orthologous sites, ends assumed
Baseline: input RNA pool
Reading: higher = stronger binding
All sequences stand within: GGGAGUUCUACAGUCCGACGAUC … CAACAGAGGAUUGAGCAUCA
Sequence | bound/input enrichment [ratio]
AAAACUGCUGUGUGAAAUCUUUCCAGAGAAGUGUCACCGUAUAAAUAUUAUCAAAUAAUUUAGCUAGAUUCUUAAGUAUUAAAUUAUAUGUCAAGCAUUUAAAGUGAAUUUGAAAUGAAA | 0.737
UCCUUUUAGGAUGAAGCUGUUACACCAGAUGUCACGGGUCUGGAAAACAGAUGGCUUAUCAAGUUGUUCUUACAGAUUACUCUCUGUGGAGCACAAUCCUUUAUAUACCAACAUCACAGU | 0.916
UGAAAGUUACAGACAAGAGUCUGAAAGUAGAAAUACAGGAUCCUGGUUAUCAUCAUCUCUACGAAACAGAUGUACACCUCUGUUCUCCAGAAGAAGGCGAGAAGGAAGAGAUGAAUCUGC | 0.223
CAGCAGAUUCUCUCAUAGGGAGAGCGGCACAUAUUGCUGUUCUUGAUUCAGAAAUAUUUUUAGAAAAAUUCUUUCUUGUUGCUGCCCUAAAAUAUUUUCAGUAGAGAAAAGCAUUAUAAG | 0.425
GUGUUUUGUACAGGGCAUUCUCUGUACUAGUUUGUUGUGGUUAUAAAACAAUUAGCAGAAUAGCCUACAUUUGUAUUUAUUUUCUAUUCCAUACUUCCGCCCACGUUGUUUUCUCUCAAA | 1.06
GUGGGGACAUACUCUGGGGAGCUGCCGGGCACUUACAUCGUUUGAUUUAUGACCUUGACUUACUAGAUAGGCUUUUUUUUUAAUUUAAAAAUAUUGACUUCACAAAAGUUUAUUCUAAGG | 0.793
CCCAGUCUUCCACUUAAGGUCAGCCACAUUCUAUAGGAUUUAUGACAGCUAUAUUAUAUCUAGUUAAUAAUUUUUAUCACCUGUAACUAAUUACAUUAAAAUGAUAUUGAUCUGAUAAAA | 1
ACGCUUUGAUAUUAAAUUCGACAUAAAAAGCAGCUGAUCGUAAGCACAACCCUCUUCUCCUAGCCAUUUAAAAAGGUAAAAAACAAAAAAGAAAACCUACUAGUCUUGAACAAACUGUCA | 0.632

Block 5
Target: Sal-like protein 4, full length isoform B (SALL4, Homo sapiens, UniProt Q9UJQ4-2, residues 1-616)
Method: universal PBM
Molecule type: double-stranded DNA, one strand shown
Medium: in vitro
Tested at: not given
Setting: 8-mer, flanks averaged, mean of replicates
Reading: higher = stronger binding
Target sequence (chain): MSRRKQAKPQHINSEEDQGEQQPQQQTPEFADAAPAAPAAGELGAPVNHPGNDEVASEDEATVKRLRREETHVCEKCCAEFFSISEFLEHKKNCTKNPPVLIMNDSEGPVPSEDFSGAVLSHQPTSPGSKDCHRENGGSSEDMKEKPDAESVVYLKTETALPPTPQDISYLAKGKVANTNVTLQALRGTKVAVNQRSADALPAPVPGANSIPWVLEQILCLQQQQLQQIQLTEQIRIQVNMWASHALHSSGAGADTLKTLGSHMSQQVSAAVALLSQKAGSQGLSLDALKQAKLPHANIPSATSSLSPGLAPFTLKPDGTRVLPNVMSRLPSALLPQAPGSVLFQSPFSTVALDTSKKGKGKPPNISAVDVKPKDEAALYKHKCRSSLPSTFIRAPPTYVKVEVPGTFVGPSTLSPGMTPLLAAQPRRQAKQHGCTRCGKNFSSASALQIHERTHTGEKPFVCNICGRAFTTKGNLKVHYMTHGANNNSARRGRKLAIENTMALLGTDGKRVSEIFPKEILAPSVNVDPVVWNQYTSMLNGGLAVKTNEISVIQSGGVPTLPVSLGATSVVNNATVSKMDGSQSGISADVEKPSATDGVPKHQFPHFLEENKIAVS
Sequence | E-score
ATCTGAAA | 0.135
ACGCTCGA | -0.0559
GATCGTAC | -0.0404
CACAGCAC | -0.171
CCTAGGAC | -0.124
ATTTGCCA | 0.0928
ATGCCAGG | -0.198
CATTTTTA | 0.273
ACCAGGCC | -0.24
CTCGGTAA | -0.0679
GAGCTACA | -0.0104
CCTGTTTA | 0.0527
CGGTTGTA | -0.147
AACGGGGT | -0.306
CACAATGG | 0.0468
ATGAGCAG | 0.0111
ACTACGAA | 0.065
CCATCGTC | -0.165
CTCTGCGC | -0.348
GCGTACTA | -0.0323
GGACCCAC | -0.232
CAACCCCG | -0.286
AGGCGGGA | -0.21
ATCACAAA | 0.2
GATCATAA | 0.336

Some of these lines once more (block 2):
Sequence | RBNS enrichment (R)
UCUGAGGAAGGCCGUAAAAUGGGGACAGGAGGAUUCAGCUCAGGAGUAAGGGAAGAGGUCCUCUGGCCCCCUGAAGAUGAGAAUCACCCCUCUCAGUGCACCUGGGGAUC | 0.334
UGUCUGAAGUGCCUUGGGGGCACCCUCAUUUUGUUUCCAUUCCAACAACGAGAACAGAGAUGUUCUGGCAUCAUUUACGUAGUUUACGCUACCAAUCUGAAUUCGAGGCC | 0.27
CAUUUGGUCUUAACACUAUGGGCUUUGUUUGCUCUGUGCUGCUGUGCCACUGCUGUUGUCUGCUCAUUGUCCUGCCUGUUGCUCAUUAUAGCCCCUGUCCUUCAUGUGUC | 0.395
UCGGCUUCUGGAGUGAAACAGCAAACCCCAAAUCUUCAAAGUUGGAAGGAACUUUAAAAAUCAUCCGGUCCAAUCUCUUUCCUCUUUCUGCCACCUCCCAAGGCAGAAAU | 0.411
GGCUCUGAGGGCGCUCCCUCCUCUCAGCCGGGCAGCCUGGCCUCUCCUGCCCAGACCUGCGGUCCCAGCAUCCCCCAGAGCCAGGGAACAGGCCCAGCGGGAGGGGGUUU | 0.343
